# Experimental data from different studies.
# Lines come from different studies, so protocols differ.
# Target: Vascular endothelial growth factor receptor 2 (KDR, Homo sapiens, UniProt P35968)
# Chain of UniProt P35968 (whole entry, looked up): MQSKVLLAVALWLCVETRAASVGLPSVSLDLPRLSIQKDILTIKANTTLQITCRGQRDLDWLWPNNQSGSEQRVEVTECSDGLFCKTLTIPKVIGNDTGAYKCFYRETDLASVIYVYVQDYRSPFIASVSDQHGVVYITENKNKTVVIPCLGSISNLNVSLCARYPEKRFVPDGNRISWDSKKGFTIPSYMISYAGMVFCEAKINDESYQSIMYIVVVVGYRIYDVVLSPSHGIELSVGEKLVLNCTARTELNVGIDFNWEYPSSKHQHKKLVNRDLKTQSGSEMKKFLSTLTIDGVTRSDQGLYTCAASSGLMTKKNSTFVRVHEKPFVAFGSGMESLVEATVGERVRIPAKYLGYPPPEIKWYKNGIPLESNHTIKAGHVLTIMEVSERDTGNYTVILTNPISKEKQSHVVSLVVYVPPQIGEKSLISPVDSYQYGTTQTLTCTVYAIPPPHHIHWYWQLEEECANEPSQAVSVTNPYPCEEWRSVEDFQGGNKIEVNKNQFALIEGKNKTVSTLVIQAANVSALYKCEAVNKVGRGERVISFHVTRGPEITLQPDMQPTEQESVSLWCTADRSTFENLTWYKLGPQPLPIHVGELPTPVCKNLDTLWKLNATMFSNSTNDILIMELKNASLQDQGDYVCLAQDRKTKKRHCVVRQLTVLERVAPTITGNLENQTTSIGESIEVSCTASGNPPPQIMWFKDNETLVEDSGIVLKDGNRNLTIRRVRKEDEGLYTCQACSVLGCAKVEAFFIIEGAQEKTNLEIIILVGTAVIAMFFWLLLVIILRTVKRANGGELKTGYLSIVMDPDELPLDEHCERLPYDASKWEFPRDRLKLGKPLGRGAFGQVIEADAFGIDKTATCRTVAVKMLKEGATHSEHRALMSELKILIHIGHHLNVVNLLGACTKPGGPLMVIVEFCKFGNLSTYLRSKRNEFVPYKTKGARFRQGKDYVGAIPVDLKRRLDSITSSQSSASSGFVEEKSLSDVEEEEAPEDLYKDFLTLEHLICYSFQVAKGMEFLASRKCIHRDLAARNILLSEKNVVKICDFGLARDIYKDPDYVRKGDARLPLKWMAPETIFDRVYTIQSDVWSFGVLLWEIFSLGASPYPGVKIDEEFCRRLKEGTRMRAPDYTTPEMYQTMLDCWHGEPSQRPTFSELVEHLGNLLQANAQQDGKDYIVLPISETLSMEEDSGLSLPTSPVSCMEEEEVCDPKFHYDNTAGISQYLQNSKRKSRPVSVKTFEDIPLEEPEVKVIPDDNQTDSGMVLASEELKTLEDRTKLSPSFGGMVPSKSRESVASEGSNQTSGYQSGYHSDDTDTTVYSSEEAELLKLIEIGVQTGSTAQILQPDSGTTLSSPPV
SMILES,test,setting,scale,endpoint,result
COc1cc(F)ccc1-c1ncnc(Nc2cccc(C[S@](C)(=N)=O)c2)n1,kinase activity,"10 µM, with: 10 µM ATP",,remaining activity,53%
C#Cc1cc(-c2cc(Nc3nc(N[C@@H](C)c4ccc(F)cn4)ncc3Cl)n[nH]2)ccc1C=O,"enzyme activity, inhibitor",0.2 µM,,inhibition,29.4%
O=S1(=O)N=C(NCc2ccc(OC(F)(F)F)cc2)Nc2cc(Cl)ccc21,enzyme activity,10 µM,,inhibition,no inhibition
CNc1ncc2c(/C=C/C(=O)N3CCC(OC)CC3)nn(Cc3cccc(C(F)(F)F)c3)c2n1,"kinase activity, inhibitor",1 µM,baseline: untreated control,remaining activity,93%
O=C(O)[C@H]1O[C@@H](Oc2cc(O)c3c(=O)cc(-c4ccc(O)c(O)c4)oc3c2)[C@H](O)[C@@H](O)[C@@H]1O,"inhibitor, LANCE Ultra",40 µM,,inhibition,> 80%
c1cnc2ccc(Nc3nc(NC4CC4)c4nc[nH]c4n3)cc2c1,"kinase activity, inhibitor, SelectScreen kinase profiling",1 µM,baseline: control,remaining activity,82%
Cc1cc(Nc2cc(N3CCN(C)CC3)nc(Sc3ccc(NC(=O)C4CC4)cc3)n2)[nH]n1,"kinase activity, KinaseProfiler","0.03 µM, species human",baseline: control,remaining activity,84%
COc1cc(-c2cncc3c2CN(C)Cc2cc(N4CCNCC4)ccc2-3)cc(OC)c1OC,kinase activity,"1 µM, human enzyme, with: ATP 10 µM",baseline: DMSO control,remaining activity,110%
[2H]c1cc(C)c(NC(=O)c2cnc(Nc3cc(N4CCCCC4)nc(C)n3)s2)c(Cl)c1,,0.01 µM,,inhibition,< 30%
O=C(NC1CCC1)c1ccc2nc(-c3cccc(NS(=O)(=O)NCCN4CCCCC4)c3)cn2c1,enzyme activity,10 µM,,remaining activity,71%

# Some of these lines once more:
SMILES,test,setting,scale,endpoint,result
O=C(O)[C@H]1O[C@@H](Oc2cc(O)c3c(=O)cc(-c4ccc(O)c(O)c4)oc3c2)[C@H](O)[C@@H](O)[C@@H]1O,"inhibitor, LANCE Ultra",40 µM,,inhibition,> 80%
